Experimental data from different studies.
Protocols differ between the studies behind these lines.
PIP4K2C: Phosphatidylinositol 5-phosphate 4-kinase type-2 gamma (PIP4K2C, Homo sapiens, UniProt Q8TBX8)
Sequence of UniProt Q8TBX8 (whole entry, looked up): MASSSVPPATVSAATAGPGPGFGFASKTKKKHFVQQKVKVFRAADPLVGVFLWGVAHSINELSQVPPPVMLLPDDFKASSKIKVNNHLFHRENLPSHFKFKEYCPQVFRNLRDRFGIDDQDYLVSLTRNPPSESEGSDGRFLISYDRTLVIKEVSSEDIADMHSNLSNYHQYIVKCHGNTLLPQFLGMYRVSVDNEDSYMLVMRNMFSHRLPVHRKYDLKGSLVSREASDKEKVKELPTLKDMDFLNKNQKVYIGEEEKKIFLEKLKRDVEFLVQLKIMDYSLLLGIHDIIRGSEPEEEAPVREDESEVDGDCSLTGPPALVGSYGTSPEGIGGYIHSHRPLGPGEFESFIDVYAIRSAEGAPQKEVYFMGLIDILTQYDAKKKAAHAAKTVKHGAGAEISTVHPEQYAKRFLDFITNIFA
Sequence of UniProt O60674 (whole entry, looked up): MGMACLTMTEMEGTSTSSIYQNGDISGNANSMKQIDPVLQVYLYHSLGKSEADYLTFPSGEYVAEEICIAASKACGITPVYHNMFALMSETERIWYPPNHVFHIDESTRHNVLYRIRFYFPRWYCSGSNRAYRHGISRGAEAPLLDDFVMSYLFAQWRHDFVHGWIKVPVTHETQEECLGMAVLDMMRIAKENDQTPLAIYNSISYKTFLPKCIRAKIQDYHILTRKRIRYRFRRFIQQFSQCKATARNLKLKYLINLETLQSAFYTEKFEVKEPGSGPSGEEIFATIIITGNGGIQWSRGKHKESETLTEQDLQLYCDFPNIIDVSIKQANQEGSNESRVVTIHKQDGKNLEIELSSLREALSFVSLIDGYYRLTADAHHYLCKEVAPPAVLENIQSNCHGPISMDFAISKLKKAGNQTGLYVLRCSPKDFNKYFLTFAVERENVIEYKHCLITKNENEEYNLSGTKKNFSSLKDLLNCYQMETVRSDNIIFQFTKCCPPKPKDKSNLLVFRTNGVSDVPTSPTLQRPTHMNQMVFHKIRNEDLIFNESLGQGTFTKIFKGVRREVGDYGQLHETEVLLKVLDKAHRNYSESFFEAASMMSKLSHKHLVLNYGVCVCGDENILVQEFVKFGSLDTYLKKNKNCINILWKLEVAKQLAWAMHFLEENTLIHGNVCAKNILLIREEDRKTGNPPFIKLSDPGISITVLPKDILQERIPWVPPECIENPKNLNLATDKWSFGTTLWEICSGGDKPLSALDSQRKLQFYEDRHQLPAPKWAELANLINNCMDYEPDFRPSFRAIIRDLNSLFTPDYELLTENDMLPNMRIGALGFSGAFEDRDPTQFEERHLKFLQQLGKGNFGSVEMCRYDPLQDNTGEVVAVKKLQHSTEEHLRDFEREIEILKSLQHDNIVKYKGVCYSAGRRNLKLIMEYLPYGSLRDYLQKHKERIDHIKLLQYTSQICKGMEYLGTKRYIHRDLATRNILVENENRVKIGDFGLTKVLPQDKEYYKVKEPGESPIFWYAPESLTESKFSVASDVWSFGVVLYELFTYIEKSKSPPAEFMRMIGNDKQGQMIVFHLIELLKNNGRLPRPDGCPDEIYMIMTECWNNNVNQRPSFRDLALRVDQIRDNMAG
Sequence of UniProt Q56UN5 (whole entry, looked up): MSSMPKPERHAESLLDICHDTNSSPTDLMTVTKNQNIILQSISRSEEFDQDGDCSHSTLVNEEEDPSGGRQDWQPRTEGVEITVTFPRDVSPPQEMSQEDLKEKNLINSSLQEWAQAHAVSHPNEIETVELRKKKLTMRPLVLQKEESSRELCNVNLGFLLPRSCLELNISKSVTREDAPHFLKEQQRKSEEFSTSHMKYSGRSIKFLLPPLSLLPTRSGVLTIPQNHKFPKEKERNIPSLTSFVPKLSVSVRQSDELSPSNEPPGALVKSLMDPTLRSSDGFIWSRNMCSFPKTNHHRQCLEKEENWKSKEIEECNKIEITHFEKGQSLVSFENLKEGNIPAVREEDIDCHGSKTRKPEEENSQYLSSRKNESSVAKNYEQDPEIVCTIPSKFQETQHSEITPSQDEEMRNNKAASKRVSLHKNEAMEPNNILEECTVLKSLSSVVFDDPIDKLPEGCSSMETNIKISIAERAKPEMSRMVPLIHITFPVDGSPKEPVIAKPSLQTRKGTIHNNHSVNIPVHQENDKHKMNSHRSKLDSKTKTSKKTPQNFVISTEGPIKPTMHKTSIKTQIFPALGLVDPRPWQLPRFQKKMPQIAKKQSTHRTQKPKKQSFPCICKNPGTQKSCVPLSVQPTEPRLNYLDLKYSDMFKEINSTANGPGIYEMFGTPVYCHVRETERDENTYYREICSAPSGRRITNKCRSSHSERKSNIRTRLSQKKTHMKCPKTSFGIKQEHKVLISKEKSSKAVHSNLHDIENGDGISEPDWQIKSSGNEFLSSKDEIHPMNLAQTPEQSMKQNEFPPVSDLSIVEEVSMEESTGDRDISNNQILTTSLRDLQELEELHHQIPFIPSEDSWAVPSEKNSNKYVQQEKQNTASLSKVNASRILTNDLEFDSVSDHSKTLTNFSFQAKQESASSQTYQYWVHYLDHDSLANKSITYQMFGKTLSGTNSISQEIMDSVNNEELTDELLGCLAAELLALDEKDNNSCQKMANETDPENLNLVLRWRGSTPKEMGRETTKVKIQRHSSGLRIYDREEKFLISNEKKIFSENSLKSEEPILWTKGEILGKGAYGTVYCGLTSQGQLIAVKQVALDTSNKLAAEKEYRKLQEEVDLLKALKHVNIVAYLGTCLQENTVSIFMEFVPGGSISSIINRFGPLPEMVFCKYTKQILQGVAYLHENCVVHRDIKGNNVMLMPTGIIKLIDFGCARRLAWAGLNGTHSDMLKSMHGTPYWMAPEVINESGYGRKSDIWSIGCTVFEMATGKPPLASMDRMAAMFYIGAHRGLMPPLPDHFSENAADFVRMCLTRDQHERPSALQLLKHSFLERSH
Sequence of UniProt Q6PL18 (whole entry, looked up): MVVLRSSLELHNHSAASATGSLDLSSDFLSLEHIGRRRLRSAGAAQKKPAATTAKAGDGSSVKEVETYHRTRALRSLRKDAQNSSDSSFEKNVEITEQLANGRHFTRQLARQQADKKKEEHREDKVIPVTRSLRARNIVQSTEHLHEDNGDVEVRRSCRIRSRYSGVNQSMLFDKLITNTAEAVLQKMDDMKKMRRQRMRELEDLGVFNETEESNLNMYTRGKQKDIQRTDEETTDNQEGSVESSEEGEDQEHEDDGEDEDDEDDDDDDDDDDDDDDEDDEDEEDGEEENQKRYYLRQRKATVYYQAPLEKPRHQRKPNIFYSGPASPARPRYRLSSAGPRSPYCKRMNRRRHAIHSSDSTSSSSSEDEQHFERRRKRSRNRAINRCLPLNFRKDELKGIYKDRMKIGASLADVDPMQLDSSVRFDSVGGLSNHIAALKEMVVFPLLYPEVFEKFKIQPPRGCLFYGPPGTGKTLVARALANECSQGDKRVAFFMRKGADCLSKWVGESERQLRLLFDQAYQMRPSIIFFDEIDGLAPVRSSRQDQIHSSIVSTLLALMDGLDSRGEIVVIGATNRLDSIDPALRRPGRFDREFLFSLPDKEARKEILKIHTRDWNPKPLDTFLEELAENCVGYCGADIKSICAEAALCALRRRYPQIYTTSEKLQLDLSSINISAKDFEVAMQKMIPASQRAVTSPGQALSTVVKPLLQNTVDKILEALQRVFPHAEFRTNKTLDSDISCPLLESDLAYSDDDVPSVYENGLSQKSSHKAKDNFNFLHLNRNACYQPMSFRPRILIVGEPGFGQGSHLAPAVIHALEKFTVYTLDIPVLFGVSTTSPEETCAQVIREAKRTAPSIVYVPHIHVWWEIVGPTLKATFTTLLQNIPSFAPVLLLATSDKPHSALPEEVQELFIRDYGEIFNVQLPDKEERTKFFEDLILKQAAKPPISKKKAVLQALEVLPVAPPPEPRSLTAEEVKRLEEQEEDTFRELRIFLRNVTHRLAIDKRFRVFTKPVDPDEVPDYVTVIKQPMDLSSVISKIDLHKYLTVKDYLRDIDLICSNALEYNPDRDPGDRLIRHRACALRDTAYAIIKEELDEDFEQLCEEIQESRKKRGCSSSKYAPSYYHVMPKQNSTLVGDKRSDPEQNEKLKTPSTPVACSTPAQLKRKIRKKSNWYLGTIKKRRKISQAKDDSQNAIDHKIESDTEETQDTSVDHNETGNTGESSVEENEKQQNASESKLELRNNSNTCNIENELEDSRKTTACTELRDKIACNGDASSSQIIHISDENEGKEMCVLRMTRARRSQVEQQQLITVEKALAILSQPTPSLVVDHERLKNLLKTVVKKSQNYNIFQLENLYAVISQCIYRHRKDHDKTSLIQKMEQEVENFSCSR

Structure (SMILES)	target or system	test	system	setting	scale	quantity	value
Cc1cc(NC(=O)[C@H](O)c2cc(F)cc(F)c2)ccc1-c1cnc(N)c(C(=O)NC(C)C)c1	Mitogen-activated protein kinase kinase kinase 19 (MAP3K19, Homo sapiens, UniProt Q56UN5)	binding, competition with immobilised ligand	–	1 µM	–	remaining binding	65%
CNC1C[S+]2CC[S+]3CC[S+](C1)[Ru-4]321([N]=C=S)[n]2c3ccc(OC)cc3c3c4c(c5cc(F)c[n+]1c5c32)C(=O)NC4=O (stereo not shown)	Tyrosine-protein kinase ABL1, phosphorylated (ABL1, Homo sapiens, UniProt P00519, T315I)	KinomeScan	–	0.1 µM	reference: untreated	remaining binding	100%
COC1CN([C@H]2CC[C@H]([C@@]3(C)Oc4c(Cl)cc(C(=O)NCc5c(SC)cc(C)[nH]c5=O)c(C)c4O3)CC2)C1	–	RNA-seq, item: MPZL2	human, whole blood	dose not given, 24 h	reference: pretreatment baseline	log2 fold change	1.68
Cn1cc(-c2cc(N3CCCCS3(=O)=O)ccc2N[C@H]2CC[C@H](C)CC2)c2cc[nH]c2c1=O (stereo in doubt)	ATPase family AAA domain-containing protein 2 (ATAD2, Homo sapiens, UniProt Q6PL18)	binding, competition with immobilised ligand	–	1 µM	–	remaining binding	100%
COc1cc(Nc2nccc(-c3cnn4nc(OC)ccc34)n2)cc(C(F)(F)F)c1	FLT3 ITD mutant, human	KINOMEscan scanMAX binding	–	1000 nM	reference: control	remaining binding	100%
Cc1cnc2nc1Nc1cccc(c1)COC/C=C/COCc1cc(ccc1OCCN1CCOCC1)N2	Tyrosine-protein kinase JAK2 (JAK2, Homo sapiens, UniProt O60674)	kinase binding panel	–	concentration not given	–	remaining binding	8%
Nc1ncc2c(n1)-c1c([nH]c3ccc(C#CC4CC4)cc13)CC2	PIP4K2C	binding, competition with immobilised ligand	–	1 µM	–	remaining binding	5%
CC(=O)N1c2ccc(-c3ccc(CNC(=O)c4cn5cc(-c6cnc(N)nc6)nc(N6CCOCC6)c5n4)cc3)cc2CC[C@@H]1C	Bromodomain adjacent to zinc finger domain protein 2B, bromodomain (BAZ2B, Homo sapiens, UniProt Q9UIF8)	binding, competition with immobilised ligand	–	10 µM	–	remaining binding	75%
Nc1ncc2c(n1)-c1c([nH]c3ccc(-c4ccc(F)cc4)cc13)CC2	PIP4K2C	binding, competition with immobilised ligand	–	1 µM	–	remaining binding	0.4%
C=CC(=O)N1CCCC(n2c(=O)c3ncccc3n(Cc3ccc(Oc4ccccc4)cc3)c2=O)C1 (stereo not shown)	Tyrosine-protein kinase ABL1, non-phosphorylated (ABL1, Homo sapiens, UniProt P00519, T315I)	cell-free assay, competition with immobilised ligand	–	1 µM	–	remaining binding	65%

Repeated from above:
Structure (SMILES)	target or system	test	system	setting	scale	quantity	value
C=CC(=O)N1CCCC(n2c(=O)c3ncccc3n(Cc3ccc(Oc4ccccc4)cc3)c2=O)C1 (stereo not shown)	Tyrosine-protein kinase ABL1, non-phosphorylated (ABL1, Homo sapiens, UniProt P00519, T315I)	cell-free assay, competition with immobilised ligand	–	1 µM	–	remaining binding	65%
